Measured values collected from several papers.
Lines come from different studies, so protocols differ. ± marks the error that the study gave.

SMILES = NCCCC[C@H](NC(=O)[C@@H]1CCCN1C(=O)[C@@H]1CSSC[C@H](NC(=O)CNC(=O)CNC(=O)CN)C(=O)N[C@@H](Cc2ccc(O)cc2)C(=O)N[C@@H](Cc2ccccc2)C(=O)N[C@@H](CCC(N)=O)C(=O)N[C@@H](CC(N)=O)C(=O)N1)C(=O)NCC(N)=O; test system = male Sprague Dawley rats; setting = iv, single dose; quantity = NOAEL; result = 0.05 mg/kg
SMILES = CC(C)[C@H](NC(=O)[C@@H]1CCCN1C(=O)[C@H](CCCNC(=N)N)NC(=O)[C@H](CS)NC(=O)[C@H](Cc1c[nH]c2ccccc12)NC(=O)[C@H](CCCNC(=N)N)NC(=O)[C@@H](Cc1ccccc1)NC(=O)[C@H](Cc1c[nH]cn1)NC(=O)[C@H](CCC(=O)O)NC(=O)[C@H](CS)NC(=O)[C@H](CS)NC(=O)CNC(=O)[C@@H]1CC(=O)N[C@@H](CCCNC(=N)N)C(=O)NCC(=O)N[C@@H](CC(=O)O)C(=O)N[C@H](Cc2ccc(O)cc2)C(=O)N1)C(N)=O [technetium-99m labelled]; test system = C57 mouse, female, B16/F1 melanoma, muscle; setting = intravenous, 0.037 MBq, 0.5 h; quantity = tissue uptake; result = 1.02 ± 0.7 %ID/g
SMILES = O=C(CCCCC[N+]#[C][99Tc-5]([C]#[N+]CCCCCC(=O)N[C@H]1C(O)O[C@H](CO)[C@@H](O)[C@@H]1O)([C]#[N+]CCCCCC(=O)N[C@H]1C(O)O[C@H](CO)[C@@H](O)[C@@H]1O)([C]#[N+]CCCCCC(=O)N[C@H]1C(O)O[C@H](CO)[C@@H](O)[C@@H]1O)([C]#[N+]CCCCCC(=O)N[C@H]1C(O)O[C@H](CO)[C@@H](O)[C@@H]1O)[C]#[N+]CCCCCC(=O)N[C@H]1C(O)O[C@H](CO)[C@@H](O)[C@@H]1O)N[C@H]1C(O)O[C@H](CO)[C@@H](O)[C@@H]1O (stereo partly shown); test = biodistribution; test system = BALB/c nude mouse PANC-1 xenograft; how to read = reference: kidney over tumour; quantity = kidney/tumour ratio; result = 1.67
SMILES = Cc1ccc(OCC(=O)O)cc1; test system = Sprague-Dawley rat, female, plasma; setting = oral gavage, 100 mg/kg of parent drug; quantity = t1/2; result = 171 min
SMILES = CCN(CC)CC#CCNc1ccnc2cc(Cl)ccc12; test system = 100 mM phosphate buffer; setting = pH 7.4; quantity = thermodynamic solubility; result = > 1200 µM
SMILES = Cc1ncnc2c1c(C(F)(F)F)cn2[C@@H]1O[C@H](CO)[C@@H](O)[C@H]1O; test = microscopy; test system = primary peritoneal macrophages, Swiss mouse; setting = 5 days; quantity = CC50; result = 8 µM
SMILES = Cc1nc(-c2ccc(NC(=O)c3cccs3)cc2Cl)no1; test system = sodium acetate buffer; setting = 24 h, pH 4.0, room temperature; quantity = thermodynamic solubility; result = 97.3 ± 9.5 µg/mL
SMILES = Cn1c(=O)oc2ccc(-c3ccc(CC(C#N)NC(=O)C4CNCCCO4)c(F)c3)cc21 (stereo not shown); test system = human; setting = oral, 20 mg once daily, TEAE, multiple ascending dose; quantity = acne incidence; result = 11.1%
SMILES = COC(=O)CCC(=O)Oc1ccc(/C=C/C(=O)CC(=O)/C=C/c2ccc(O)c(OC)c2)cc1OC; test = dialysis release; test system = PBS with 10% Tween-80; setting = 24 h, 37 °C; quantity = cumulative release; result = 89.5%
SMILES = Cn1cc(-c2cc(N3CCCCS3(=O)=O)ccc2N[C@H]2CC[C@H](C)CC2)c2cc[nH]c2c1=O (stereo in doubt); test system = Sprague-Dawley rat, plasma; setting = oral vs intravenous, 3 mg/kg oral, 1 mg/kg i.v.; quantity = oral bioavailability; result = 21%
SMILES = CC(=O)N[C@H](CC(=O)O)C(=O)N[C@H](Cc1c[nH]c2ccccc12)C(=O)N[C@H](Cc1ccccc1)C(=O)N[C@H](CCCCN)C(=O)N[C@H](C)C(=O)N[C@H](Cc1ccccc1)C(=O)N[C@H](Cc1ccc(O)cc1)C(=O)N[C@H](CC(=O)O)C(=O)N[C@H](CCCCN)C(=O)N[C@@H](C(=O)N[C@H](C)C(=O)N[C@H](CCC(=O)O)C(=O)N[C@H](CCCCN)C(=O)N[C@H](Cc1ccccc1)C(=O)N[C@H](CCCCN)C(=O)N[C@H](CCC(=O)O)C(=O)N[C@H](C)C(=O)N[C@H](Cc1ccccc1)C(N)=O)C(C)C; test system = statin-treated high-risk CHD men, plasma; setting = oral, 100 mg daily, day 1, 0 to 2 h, mean, undetectable set to 0; quantity = Cmax; result = 2.37 ng/mL
SMILES = CCCCCCCCCCCCCCCC(=O)N[C@@H](CCCCN)C(=O)N[C@H](C(=O)N[C@H](C(=O)N[C@@H](CCCCN)C(=O)N[C@@H](CO)C(=O)O)[C@@H](C)O)[C@@H](C)O; test = LC-MS/MS; test system = hairless mouse, skin, Franz cell; setting = 50 µg/cm^2 applied, 24 h; quantity = amount retained in epidermis; result = 2.8 ± 0.5 µg/cm²
SMILES = Cn1cc(C(N)=O)c(NC2C3CC4CC2CC(OS(=O)(=O)O)(C4)C3)c2ccnc1-2 (stereo not shown); test system = Japanese adults, mild hepatic impairment, plasma; setting = oral, 150 mg single dose; quantity = AUC(0-t); result = 876 ng·h/mL
SMILES = O=C(NCCCN(CCCCN(CCCNC(=O)c1cccc(=O)n1[O-])C(=O)c1cccc(=O)n1[O-])C(=O)c1cccc(=O)n1[O-])c1cccc(=O)n1[O-].[89Zr+4]; test = radio-TLC; test system = PBS; setting = 1 d, pH 7.4, 37 °C, together with: Mg^2+ 10-fold excess; quantity = intact complex; result = 98.3 ± 2.5%
SMILES = CC(C)(Sc1cc[n+]([O-])cc1-c1ccc(C#N)c2ccccc12)C(=O)OC1OC(C(=O)O)C(O)C(O)C1O (stereo not shown); test system = adult men, urine; setting = oral, 15 mg verinurad, moderate renal impairment; how to read = reference: impaired over normal renal function; quantity = renal clearance ratio (0-72 h); result = 39.5%
SMILES = [11CH3]c1ccc2nc(C3CCC3)n(-c3ccc4[nH]ncc4c3)c2n1; test = extrapolated from mouse biodistribution; test system = standard human, gallbladder wall; quantity = absorbed dose; result = 4.4 µSv/MBq
SMILES = COc1cc(C)c(Cc2ccc(O)cc2)cc1[C@@H]1S[C@H](CO)[C@@H](O)[C@H](O)[C@H]1O; test system = Japanese T2DM patients, plasma; setting = 2.5 mg luseogliflozin, day 7, once daily; how to read = reference: compound over luseogliflozin; quantity = AUC(0-τ) ratio; result = 0.14 ± 0.0244
SMILES = CCCC[C@@H]1NC(=O)[C@@H](NC(=O)[C@H](CCC(=O)O)NC(=O)CNC(=O)CN2CCN(CC(=O)O)CCN(CC(=O)O)CCN(CC(=O)O)CC2)CCCCNC(=O)C[C@@H](C(N)=O)NC(=O)[C@H](C(C)C)NC(=O)[C@@H]2CCCN2C(=O)[C@H](CCCNC(=N)N)NC(=O)CNC(=O)[C@H](Cc2c[nH]c3ccccc23)NC(=O)[C@H](CCCNC(=N)N)NC(=O)[C@@H](Cc2ccccc2)NC(=O)[C@H](Cc2c[nH]cn2)NC(=O)[C@H](CCC(=O)O)NC1=O [gallium-67 labelled]; test system = C57 mice with B16/F1 melanoma, lung; setting = intravenous, 4 h; quantity = tissue uptake; result = 0.11 ± 0.09 %ID/g
SMILES = CN1CCC[C@]1(C)/C=C/S(=O)(=O)NC(=O)Nc1c2c(cc3c1CCC3)CCC2; test system = human, plasma; setting = oral, 100 mg twice daily, day 1, multiple ascending dose; quantity = AUC(0-24); result = 145 µg·h/mL
SMILES = O=C(CCc1cc(O)c(O)c(O)c1)NCCCCCCCCCC[P+](c1ccccc1)(c1ccccc1)c1ccccc1; test system = human red blood cells; setting = 1 h, 37 °C; quantity = HC10; result = > 32 µg/mL
SMILES = COCC1CN(C2CCN(c3cc(OC)c(Nc4ncc(Br)c(Nc5ccc6c(c5P(C)(C)=O)OCCO6)n4)cc3C)CC2)C1; test system = human patients; setting = oral, 10 to 240 mg once daily; quantity = treatment-related Diarrhea, all grades; result = 22.2%
SMILES = CCCCCCCC(=O)OC[C@H](NC(=O)[C@H](CO)NC(=O)CN)C(=O)N[C@@H](Cc1ccccc1)C(=O)N[C@@H](CC(C)C)C(=O)N[C@@H](CO)C(=O)N1CCC[C@H]1C(=O)N[C@@H](CCC(=O)O)C(=O)N[C@@H](Cc1cnc[nH]1)C(=O)N[C@@H](CCC(N)=O)C(=O)N[C@@H](CCCNC(=N)N)C(=O)N[C@H](C(=O)N[C@@H](CCC(N)=O)C(=O)N[C@@H](CCC(N)=O)C(=O)N[C@@H](CCCNC(=N)N)C(=O)N[C@@H](CCCCN)C(=O)N[C@@H](CCC(=O)O)C(=O)N[C@@H](CO)C(=O)N[C@@H](CCCCN)C(=O)N[C@@H](CCCCN)C(=O)N1CCC[C@H]1C(=O)N1CCC[C@H]1C(=O)N[C@@H](C)C(=O)N[C@@H](CCCCN)C(=O)N[C@@H](CC(C)C)C(=O)N[C@@H](CCC(N)=O)C(=O)N1CCC[C@H]1C(=O)N[C@@H](CCCNC(=N)N)C(=O)O)C(C)C; test = beat-to-beat plethysmography; test system = human chronic HFrEF patients; setting = intravenous infusion, 0.1 µg/kg/min, 30 min after infusion end; quantity = blood pressure sBP; result = 106 ± 20.5 mm Hg
SMILES = O=C(Nc1nccs1)C(c1cc(F)ccc1O)N1Cc2ccccc2C1=O (stereo not shown); test system = mouse plasma; setting = 6 ng/mL, 5 h, room temperature, short-term stability, low QC; quantity = recovery; result = 97.8 ± 2.7%
SMILES = O=C(OCc1cccc(O)c1O)c1ccc(O)c(CO)c1; test system = mice; setting = intraperitoneal, 5 mg/kg/day, 14 days, together with: fMLP PMA or LPS; how to read = reference: vehicle; quantity = PBMC oxidative burst; result = no effect
SMILES = CC1(C)OB(c2ccc(COC(=O)N[c-]3cccc3)cc2)OC1(C)C.[Fe+2].c1cc[cH-]c1; test = cyclic and differential pulse voltammetry; test system = acetonitrile; setting = 23 °C; how to read = reference: ferrocene/ferrocenium; quantity = E1/2; result = -70 mV
SMILES = C[C@H](NC(=O)COC(=O)[C@H](C)NC(=O)CO)C(=O)O; test system = water; setting = pH 8, 37 °C; quantity = depolymerization half-life; result = 1.2 min
SMILES = Cc1cc(O)c2c(c1)C(=O)c1cc(O)cc(O)c1C2=O.Cc1cc(O)c2c(c1)C(=O)c1cc(O)cc(O)c1C2=O.Cc1nc(C)c(C)nc1C; test = powder dissolution; test system = 900 mL medium; setting = equivalent to 60 mg emodin, pH 6.8, 37 °C, 100 rpm; quantity = cumulative dissolution; result = ~333 µg
SMILES = CCn1c(=O)n(CCO)c(=O)c2c1nc(/C=C/c1ccc(OC)c(OC)c1)n2C; test system = healthy humans, plasma; setting = oral, 40 mg, together with: rifampin 600 mg/day; quantity = metabolite to parent Cmax ratio; result = 0.138

For quick reference, copied from above:
SMILES = CC(C)(Sc1cc[n+]([O-])cc1-c1ccc(C#N)c2ccccc12)C(=O)OC1OC(C(=O)O)C(O)C(O)C1O (stereo not shown); test system = adult men, urine; setting = oral, 15 mg verinurad, moderate renal impairment; how to read = reference: impaired over normal renal function; quantity = renal clearance ratio (0-72 h); result = 39.5%
SMILES = CC1(C)OB(c2ccc(COC(=O)N[c-]3cccc3)cc2)OC1(C)C.[Fe+2].c1cc[cH-]c1; test = cyclic and differential pulse voltammetry; test system = acetonitrile; setting = 23 °C; how to read = reference: ferrocene/ferrocenium; quantity = E1/2; result = -70 mV
SMILES = COC(=O)CCC(=O)Oc1ccc(/C=C/C(=O)CC(=O)/C=C/c2ccc(O)c(OC)c2)cc1OC; test = dialysis release; test system = PBS with 10% Tween-80; setting = 24 h, 37 °C; quantity = cumulative release; result = 89.5%
